Assay results collected from several papers.
Parts stem from different laboratories: compare values within a part only.

Series 1 — technique: RNA Bind-n-Seq; molecule type: RNA; matrix: in vitro; concentration: 365 nM; relative to: no-protein control; reading: higher = stronger binding
Target: RNA binding protein fox-1 homolog 2, RRM domain, GST-SBP tag (RBFOX2, Homo sapiens, UniProt O43251-10, residues 100-194)
Setting: natural RNA segment, single round, ends assumed
Residues (chain): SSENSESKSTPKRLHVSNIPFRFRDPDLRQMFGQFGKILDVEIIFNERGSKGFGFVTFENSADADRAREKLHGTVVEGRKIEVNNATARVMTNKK
| Sequence | RBNS enrichment (R) |
| --- | --- |
| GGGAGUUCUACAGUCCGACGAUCUGUGCUUUCCUAUGGAAAAAAUACAUAUAUAGUUUAGUUUGUUAGACGUGAGUUAUCCAAGUAUUUAUUUUGUGUAGUGUGUAAGAAUGCUAAAUAAAAUGUUAUACAAGUGGAAUUCUCGGGUGCCAA | 0.384 |
| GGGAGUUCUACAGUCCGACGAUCCUUCUGGGGUCGUCUGUCCUAUCCGUGGAUUGUAUAUACUCUUCUCUGUUAAGGAGUUUUUCCCAAGAAGAAAAGUAUUUAAAAGAAAUACCAGUGAGUGCCUUAAAGUUUGGAAUUCUCGGGUGCCAA | 0.636 |
| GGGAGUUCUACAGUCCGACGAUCAAGGGAGGAUCUUCUUCAGUUGUAGUUUGGAAGGUUCCUUGGUGUGGCUCAUGAAAUCACAGAGCUCAGAGAUACCAUCUUGAGAAAUCCUCCUUGGUAUCAUGAAACUGUGGAAUUCUCGGGUGCCAA | 0.839 |
| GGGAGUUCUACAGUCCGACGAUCAAAGCAUUUUUAAAGAUUAAUCUGAAUUAAGCUUUAUCAGUGUACUCUUUAUCUGUGUUACUAGUGCCUGGUAUGUAGUAGGUGCUCAAUAAAUGCAUAUUGAAUAACUAUGGAAUUCUCGGGUGCCAA | 0.431 |
| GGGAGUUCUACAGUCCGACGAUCGUAUGCAUACAUGCCCCUCACCCUACCCCAGGGACCAUGGUUCCUAGGAUCUCACUGCCUCCCUCUCUGGCCUUCCUGUCCCCUCCCUUCAGCUAUGACAGCUGGUGUGGUGGAAUUCUCGGGUGCCAA | 0.322 |
| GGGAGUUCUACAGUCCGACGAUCCUAUACAUUUAGGUAAUGAAUGGUAGUAGAACUAAUAGCUUUAACAGGAGAAUAGGGAAUGAGAAAUAGAAAUCCAAGGCUGAAGCCAAAAGUAAGGAGGGUGGCCAAAUUGGAAUUCUCGGGUGCCAA | 3.05 |
| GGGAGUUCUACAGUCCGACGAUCAUGACAAGGCAACCACAGAAGUCAGAACAAUCAGGCUUGAGUGGGUGGCCAGGUCAGCUACUGCCCUUCCCAGAAAGCCCUGGAGGUGACCAUAGCCUGUCACCACCCAAUGGAAUUCUCGGGUGCCAA | 0.228 |
| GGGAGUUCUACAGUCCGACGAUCAUUCUCCUAAAGAGCAGUGAAGGAAAUGUCAGGUUAGCAGGACCCAAGUUUUGGGUGUGAAAUGUUGCCAGCUUCCUAUAAUGUAAACGGACUUGUUAACCUAACCUAAUUGGAAUUCUCGGGUGCCAA | 0.231 |
| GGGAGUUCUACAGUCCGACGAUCUGCCUCCAGCCCGAGCCUCCUCUCCUCUUCUCUCCCGAGACACAGCCUCACCCGUCAUUUCAUUCUCUAUCCACUGUCUGUCACCUCCAGCAUGGAAAGGUUCAGCUGGAUGGAAUUCUCGGGUGCCAA | 1.5 |
| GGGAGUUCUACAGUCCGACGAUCGGAACAGAAAUCCUUGAACUUUUUAUUUGGCGUGUGCCAUGUUAUGAUCAUGUACCUUUUCAAUAAGGGGAGAUAGUAUCUUUAAAGUCAAUGUCUAGCCAAGAGUUUAGUGGAAUUCUCGGGUGCCAA | 0.473 |
| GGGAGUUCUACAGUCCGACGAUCGAGGAAGUUCCCGGCCUGGGGGCUUUAUCCAGGGGUCCCAGUCGAGAGUGGCCCGAGGCCGUCCCUCACCGGGCAUGUUCCCUCUGGCUGCCCACUCCCUCAGGGCCCACUGGAAUUCUCGGGUGCCAA | 0.32 |
| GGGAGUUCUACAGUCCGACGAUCUCUAGCAGUUCUUUUUGUGAUGUCUCUUUGUUAAUCUGAGUCUAUCUAUUUUCGGCAAUAAGGUAAGGACGACAGUGUUUUGAGUGUCCUCCUUUUCUAUAAGUGCUUUUUGGAAUUCUCGGGUGCCAA | 1.41 |

Series 2 — technique: aptamer microarray, sandwich; molecule type: DNA with 2'F-ANA; matrix: in vitro; concentration: 200 nM; with: Cy3 exosite-II aptamer, 400 nM; reading: higher = stronger binding; sequence: GGTTGGTGTGGTTGG
Target: Prothrombin, mature alpha-thrombin (F2, Homo sapiens, UniProt P00734)
Setting: whole 15-mer aptamer, many near background
| Modification | mean fluorescence intensity |
| --- | --- |
| 2'F-ANA at 1 3 4 5 7 10 11 12 14 | 44.3 a.u. |
| 2'F-ANA at 1 4 5 6 10 12 13 | 46.6 a.u. |
| 2'F-ANA at 4 5 6 7 8 9 12 14 15 | 49.9 a.u. |
| 2'F-ANA at 1 2 3 4 8 10 14 15 | 57.9 a.u. |
| 2'F-ANA at 1 4 9 12 14 | 58.2 a.u. |
| 2'F-ANA at 2 4 5 9 10 11 13 14 15 | 45.4 a.u. |
| 2'F-ANA at 7 9 10 11 12 13 15 | 168 a.u. |
| 2'F-ANA at 3 4 5 6 8 9 11 13 14 | 48.6 a.u. |
| 2'F-ANA at 8 9 10 12 14 15 | 104 a.u. |
| 2'F-ANA at 1 4 5 6 10 13 14 15 | 47.2 a.u. |
| 2'F-ANA at 2 3 4 6 8 9 11 12 13 15 | 491 a.u. |
| 2'F-ANA at 2 9 10 11 14 | 91.2 a.u. |
| 2'F-ANA at 3 4 6 8 11 13 | 505 a.u. |
| 2'F-ANA at 2 5 7 10 11 15 | 71.6 a.u. |
| 2'F-ANA at 2 6 9 12 13 15 | 455 a.u. |
| 2'F-ANA at 1 2 8 11 12 14 15 | 70 a.u. |
| 2'F-ANA at 1 4 7 8 9 10 11 12 13 15 | 55.3 a.u. |
| 2'F-ANA at 1 4 5 6 7 | 108 a.u. |
| 2'F-ANA at 1 2 5 6 7 10 13 | 58.8 a.u. |
| 2'F-ANA at 2 3 6 7 9 11 12 13 14 | 309 a.u. |
| 2'F-ANA at 4 7 8 10 15 | 103 a.u. |
| 2'F-ANA at 1 3 5 6 | 62 a.u. |
| 2'F-ANA at 1 2 5 9 10 11 13 | 50.1 a.u. |
| 2'F-ANA at 3 4 6 7 8 9 10 14 | 206 a.u. |
| 2'F-ANA at 2 3 5 6 8 10 | 55.1 a.u. |

Series 3 — technique: RNAcompete; molecule type: RNA; matrix: in vitro; concentration: 20 nM; setting: 7-mer, probes averaged, single round; relative to: mean of 7-mers; reading: higher = stronger binding
Target: PABPC1L2, full length, GST fusion (mouse, UniProt A0ABA7IW68)
| Sequence | 7-mer Z-score |
| --- | --- |
| CUCCUCG | -0.565 |
| AUUUGGA | -0.0391 |
| UUAAUAC | -0.182 |
| GCCAUGC | -0.0971 |
| GUUCGCG | -0.4 |
| ACGGUUC | -0.119 |
| UAGUCGG | -0.0899 |
| GCCCUCU | -0.329 |
| ACGCUGA | -0.117 |
| UACGCAA | -0.0337 |
| UAACUGU | -0.286 |
| AAUCACU | -0.0264 |
| CUGAGAC | -0.119 |
| GUGAAAG | 0.162 |
| UGAAGUU | -0.307 |
| GCUUCAC | -0.177 |
| AUAAGAG | 0.138 |
| AUGUAAG | 0.0406 |
| ACAGAUC | 0.283 |
| GGAUAUA | 0.106 |
| UCAUGGA | -0.0391 |
| CUGUCCA | -0.354 |
| CUAGACA | -0.112 |
| CCUUUUU | 0.124 |
| AUUAUUG | -0.166 |

Series 4 — technique: RNA Bind-n-Seq; molecule type: RNA; matrix: in vitro; concentration: 200 nM; setting: whole 134-nt RNA, ends assumed; with: 150 mM KCl; relative to: input library; reading: higher = stronger binding
Target: Ras GTPase-activating protein-binding protein 1, full length (G3BP1, Homo sapiens, UniProt Q13283)
Chain of UniProt Q13283 (whole entry, looked up): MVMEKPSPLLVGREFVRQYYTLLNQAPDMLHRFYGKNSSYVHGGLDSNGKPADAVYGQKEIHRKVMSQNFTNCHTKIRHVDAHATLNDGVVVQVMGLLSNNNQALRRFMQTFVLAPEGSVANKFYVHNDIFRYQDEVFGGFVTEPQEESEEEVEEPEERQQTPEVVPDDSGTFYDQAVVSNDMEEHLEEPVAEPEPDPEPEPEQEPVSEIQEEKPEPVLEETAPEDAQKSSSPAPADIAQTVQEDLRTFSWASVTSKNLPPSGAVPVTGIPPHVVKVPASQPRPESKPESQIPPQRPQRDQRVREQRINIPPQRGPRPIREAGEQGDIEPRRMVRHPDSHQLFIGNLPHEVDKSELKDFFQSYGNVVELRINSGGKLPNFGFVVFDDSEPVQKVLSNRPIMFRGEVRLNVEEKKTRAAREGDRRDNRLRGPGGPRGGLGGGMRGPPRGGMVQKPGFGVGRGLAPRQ
| Sequence | log2 enrichment |
| --- | --- |
| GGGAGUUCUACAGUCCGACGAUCUGGCCCUGGUGGCAUGCGGGGAGGAAGAGGUGACCUCAUGGAUCGUGGUGGUCCCGGUGGAAUGUUCAGAGGUGGCCGUGGUGGAGACAGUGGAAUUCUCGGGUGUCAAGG | 0.203 |
| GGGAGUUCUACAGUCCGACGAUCAAGUCCUGUGCUACACAUCGUAUGUACCGAAUCGGGAAAGGGUUUUUGGGAAAGGGAAAGUAUUAUGUUACGCCGUUCGGAUCUGCACUUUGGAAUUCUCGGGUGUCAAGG | 0.0255 |
| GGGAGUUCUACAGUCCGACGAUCCACAGACAACGCGCACCCACACAGACACAGAGGGAAGGGGUUGGGAUGGGGACAGGGUGCACAGCAGGGCGGGGUAGGACCCCAGCCCCUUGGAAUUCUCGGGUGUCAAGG | 1.83 |
| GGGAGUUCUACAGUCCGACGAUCCAAGUCCUGUGCUACACAUCGUAUGUACCGAAUCGGUUUGGUUUUUUUGGAAAGGAAAGUAUUAUGUUACGCCGUUCGGAUCUGCACUUCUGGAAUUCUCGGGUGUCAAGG | -1.01 |
| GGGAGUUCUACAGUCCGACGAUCACCAUGCAGGUGGGCAUCUUUGGGAAGUGGGGCAAGGGCGGGAUAGGGAGGGGGGUAACACUUUGGGAACAGGUGGUCCCAGGUCGUUUCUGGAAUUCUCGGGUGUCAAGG | 1.14 |
| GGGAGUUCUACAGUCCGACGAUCGCAGGAAGUAAAAACAAAUGGAAAUGCUUCGGAUAGUGGCAGGGGUGGGGGUUGCUAAGGAAAGGGUGGGAUGGCAGUGGGUAAAGAGUUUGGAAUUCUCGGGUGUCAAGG | 0.661 |
| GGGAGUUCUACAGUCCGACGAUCCAAGUCCUGUGCUACACAUCGUAUGUACCGAAUCGGAAAAGGGAAAAGGAAAAGGGAAAGUAUUAUGUUACGCCGUUCGGAUCUGCACUUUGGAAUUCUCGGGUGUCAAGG | -0.939 |
| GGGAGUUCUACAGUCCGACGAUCUCCUGUGCUACACAUCGUAUGUACCGAAUCGGGGUUUUUUGGGUUUUUUGGUUUUUUGGAAAGUAUUAUGUUACGCCGUUCGGAUCUGCAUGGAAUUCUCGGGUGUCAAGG | -0.439 |
| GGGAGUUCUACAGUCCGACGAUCCCUGUGCUACACAUCGUAUGUACCGAAUCGGGGAAAAAGGGGUUUUUGGGGUUUUUGGGGAAAGUAUUAUGUUACGCCGUUCGGAUCUGCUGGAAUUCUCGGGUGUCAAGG | 0.283 |
| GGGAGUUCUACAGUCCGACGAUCACCAUGCAGGUGGGCAUCUUUGGGAAGUGGGGCAAGGGGGGGAUAGGGAGGGGGGUAACACUUUGGGAACAGGUGGUGCCAGGUCGUUUCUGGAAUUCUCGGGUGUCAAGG | 1.31 |

Excerpt of the above (series 2):
| Modification | mean fluorescence intensity |
| --- | --- |
| 2'F-ANA at 2 5 7 10 11 15 | 71.6 a.u. |
| 2'F-ANA at 2 6 9 12 13 15 | 455 a.u. |
| 2'F-ANA at 1 2 8 11 12 14 15 | 70 a.u. |
| 2'F-ANA at 1 4 7 8 9 10 11 12 13 15 | 55.3 a.u. |
